Published values collected from several papers.
Each line is one published result; not all experiments were run side by side. ± marks the error that the study gave.
Target: Cytochrome P450 3A4 (CYP3A4, Homo sapiens, UniProt P08684)
Sequence of UniProt P08684 (whole entry, looked up): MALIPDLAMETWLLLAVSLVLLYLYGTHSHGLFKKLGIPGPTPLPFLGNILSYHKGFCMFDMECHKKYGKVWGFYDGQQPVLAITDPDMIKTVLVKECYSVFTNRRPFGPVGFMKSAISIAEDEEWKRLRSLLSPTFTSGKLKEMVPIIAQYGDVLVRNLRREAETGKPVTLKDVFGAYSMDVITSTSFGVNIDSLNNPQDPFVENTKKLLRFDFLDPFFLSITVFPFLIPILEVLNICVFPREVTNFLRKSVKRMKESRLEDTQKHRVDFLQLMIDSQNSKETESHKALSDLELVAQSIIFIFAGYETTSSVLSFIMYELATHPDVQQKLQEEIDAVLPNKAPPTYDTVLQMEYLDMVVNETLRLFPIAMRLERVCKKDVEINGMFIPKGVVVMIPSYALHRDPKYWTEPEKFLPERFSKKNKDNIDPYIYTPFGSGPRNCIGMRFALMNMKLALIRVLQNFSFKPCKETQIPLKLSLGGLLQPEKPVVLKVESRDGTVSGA
Mode: inhibitor

SMILES | assay | test system | setting | measurement | value
CCc1nc(N)nc(N)c1C#CC(C)c1cc(-c2cc(C)nc(C)c2)ccc1Cl (stereo not drawn) | enzyme activity, fluorescence | – | 30 min | IC50 | 43000 nM
O=C1c2oc3cc(O)c(O)cc3c2C(=O)c2oc3cc(O)c(O)cc3c21 | midazolam 1'-hydroxylation | pooled human liver microsomes | 60 min, pH 7.4, 37 °C, preincubation 0 min without NADPH | IC50 | 11300 nM
O=c1nc(NO)ccn1[C@@H]1O[C@H](CO)[C@@H](O)[C@H]1O | enzyme activity | human, liver microsomes | 10 min, pH 7.4, testosterone probe | IC50 | > 100000 nM
COc1ccc(-c2cccc(S(=O)(=O)N[C@@H](Cc3cccc(C(=N)N)c3)C(=O)N3CCC(NC(=O)NC4CCCCC4)CC3)c2)c(OC)c1 | enzyme activity | – | testosterone probe | IC50 | 2000 nM
O=C(NC1CCC(F)(F)CC1)C(c1cncnc1)N(C(=O)C(F)Cl)c1ccc(-c2cncs2)cc1 (stereo not drawn) | enzyme activity | – | 10 (unit not given) | IC50 | 1450 nM
CC(Cc1cc2c(cc1OCc1ccccc1)OCO2)CS(=O)(=O)c1ccccc1 (stereo not drawn) | enzyme activity, fluorescence | – | – | IC50 | 130 nM
CN(C)C(CNC(=O)Nc1cc(C(F)(F)F)ccc1N1CCOCC1)c1ccncc1 (stereo not drawn) | enzyme activity | human, liver microsomes | – | IC50 | 440 nM
C[C@]1(O)CCCN(c2nc(Nc3ccc(S(=O)(=O)N[C@H]4CC[C@H](CN5CCN(c6ccc(C7CCC(=O)NC7=O)cc6F)CC5)CC4)cc3)ncc2C(F)(F)F)C1 (stereo partly drawn) | time-dependent inhibition | – | 30 min preincubation, with: without NADPH | IC50 | > 10000 nM
COc1ccc(-c2cccc(S(=O)(=O)N[C@@H](Cc3cccc(C(=N)N)c3)C(=O)N3CCN(C(=O)NC4CCCCC4)CC3)c2)c(OC)c1 | enzyme activity | – | testosterone probe | IC50 | 6200 nM
CC1CCC2(OC1)OC1CC3C4CC=C5CC(OC6OC(CO)C(OC7OC(CO)C(O)C7O)C(O)C6OC6OC(C)C(O)C(O)C6O)CCC5(C)C4CCC3(C)C1(O)C2C (stereo not drawn) | enzyme activity | human, liver microsomes | pH 7.4, testosterone probe | Ki | 2380 nM
N=C(N)c1cccc(C[C@H](NS(=O)(=O)c2cccc(-c3cc(CO)ccc3Cl)c2)C(=O)N2CCC(CCNC(=O)NC3CCCCC3)CC2)c1 | enzyme activity, fluorometric | human liver microsomes | 15 min, 37 °C | IC50 | 300 ± 70 nM
COc1ccc2c(c1OCc1ccccc1)C[C@@H](C(=O)O)N(c1nc3ccc(C#N)cc3o1)C2 | enzyme activity | human, liver microsomes | 15 min, pH 7.4, midazolam probe | IC50 | > 50000 nM
